# Measurements of several laboratories.
# The chains behind the UniProt entries cited, without tags or fusion partners. Residues count along the entry.
# UniProt Q00959, 23-1464 limits assumed: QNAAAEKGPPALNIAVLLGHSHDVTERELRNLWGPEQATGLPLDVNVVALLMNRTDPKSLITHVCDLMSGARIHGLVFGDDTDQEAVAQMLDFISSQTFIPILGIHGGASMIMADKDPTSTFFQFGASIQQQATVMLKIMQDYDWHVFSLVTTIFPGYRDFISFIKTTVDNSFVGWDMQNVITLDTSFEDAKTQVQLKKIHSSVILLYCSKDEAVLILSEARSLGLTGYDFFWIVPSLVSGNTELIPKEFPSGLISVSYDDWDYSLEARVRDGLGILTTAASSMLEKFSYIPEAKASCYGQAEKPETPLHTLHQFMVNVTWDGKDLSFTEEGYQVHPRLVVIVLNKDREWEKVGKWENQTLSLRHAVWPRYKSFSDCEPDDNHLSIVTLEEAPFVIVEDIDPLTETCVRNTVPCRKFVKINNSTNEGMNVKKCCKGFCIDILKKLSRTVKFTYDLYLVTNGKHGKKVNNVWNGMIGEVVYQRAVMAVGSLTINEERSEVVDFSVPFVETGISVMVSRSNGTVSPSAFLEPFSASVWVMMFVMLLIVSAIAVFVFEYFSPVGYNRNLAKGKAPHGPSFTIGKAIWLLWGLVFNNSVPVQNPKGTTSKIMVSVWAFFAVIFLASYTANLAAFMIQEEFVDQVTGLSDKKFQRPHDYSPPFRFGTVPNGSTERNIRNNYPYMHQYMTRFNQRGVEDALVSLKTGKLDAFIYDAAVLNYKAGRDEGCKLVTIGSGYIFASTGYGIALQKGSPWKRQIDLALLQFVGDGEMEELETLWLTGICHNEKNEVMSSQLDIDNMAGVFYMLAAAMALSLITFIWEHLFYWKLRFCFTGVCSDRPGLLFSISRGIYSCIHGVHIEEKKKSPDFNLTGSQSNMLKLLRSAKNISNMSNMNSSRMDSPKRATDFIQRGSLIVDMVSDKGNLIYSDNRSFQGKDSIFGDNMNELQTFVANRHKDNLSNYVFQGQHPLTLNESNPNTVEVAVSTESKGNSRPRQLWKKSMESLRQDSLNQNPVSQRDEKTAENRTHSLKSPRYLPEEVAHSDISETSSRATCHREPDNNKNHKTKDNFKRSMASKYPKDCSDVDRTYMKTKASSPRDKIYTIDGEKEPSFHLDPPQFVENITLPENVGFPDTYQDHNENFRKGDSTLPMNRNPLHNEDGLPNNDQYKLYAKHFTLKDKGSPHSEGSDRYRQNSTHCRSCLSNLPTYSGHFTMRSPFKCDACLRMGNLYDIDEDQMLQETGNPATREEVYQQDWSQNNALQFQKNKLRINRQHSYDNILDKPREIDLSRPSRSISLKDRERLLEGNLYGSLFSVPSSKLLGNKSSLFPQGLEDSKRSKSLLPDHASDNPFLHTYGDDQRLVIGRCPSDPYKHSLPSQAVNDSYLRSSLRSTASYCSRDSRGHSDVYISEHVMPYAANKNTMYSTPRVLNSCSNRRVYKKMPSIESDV
# UniProt P10636, 623-758 limits assumed: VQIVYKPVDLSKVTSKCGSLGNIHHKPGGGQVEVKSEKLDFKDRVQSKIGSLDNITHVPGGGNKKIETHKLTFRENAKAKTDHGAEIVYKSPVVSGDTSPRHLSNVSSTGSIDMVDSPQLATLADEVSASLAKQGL
# UniProt P50097, whole entry: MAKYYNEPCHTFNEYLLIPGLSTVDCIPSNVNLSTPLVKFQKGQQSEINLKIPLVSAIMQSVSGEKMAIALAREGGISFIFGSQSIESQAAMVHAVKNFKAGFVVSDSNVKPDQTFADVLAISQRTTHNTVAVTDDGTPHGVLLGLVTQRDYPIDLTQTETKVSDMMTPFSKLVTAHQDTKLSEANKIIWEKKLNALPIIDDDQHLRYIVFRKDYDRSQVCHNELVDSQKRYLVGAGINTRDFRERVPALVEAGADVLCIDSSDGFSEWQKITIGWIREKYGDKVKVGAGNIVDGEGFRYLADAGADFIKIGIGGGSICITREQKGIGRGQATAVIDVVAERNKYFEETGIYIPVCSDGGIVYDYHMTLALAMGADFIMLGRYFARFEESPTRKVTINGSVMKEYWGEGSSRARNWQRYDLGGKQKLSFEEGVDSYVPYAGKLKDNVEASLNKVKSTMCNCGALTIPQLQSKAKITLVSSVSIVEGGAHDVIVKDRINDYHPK
# UniProt P35348, whole entry: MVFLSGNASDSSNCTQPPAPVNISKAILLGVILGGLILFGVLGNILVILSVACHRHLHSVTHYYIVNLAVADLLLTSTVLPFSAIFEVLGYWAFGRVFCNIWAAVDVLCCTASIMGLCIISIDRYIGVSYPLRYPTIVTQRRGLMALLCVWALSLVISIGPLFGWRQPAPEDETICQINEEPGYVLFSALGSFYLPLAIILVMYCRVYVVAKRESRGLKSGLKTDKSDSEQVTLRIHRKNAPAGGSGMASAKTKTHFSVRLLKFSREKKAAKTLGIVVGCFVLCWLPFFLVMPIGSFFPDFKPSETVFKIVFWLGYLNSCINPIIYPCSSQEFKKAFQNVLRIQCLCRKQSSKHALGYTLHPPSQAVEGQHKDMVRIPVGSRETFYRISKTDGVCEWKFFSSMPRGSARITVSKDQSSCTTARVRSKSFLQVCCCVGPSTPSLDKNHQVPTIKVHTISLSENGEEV
# UniProt Q13470, whole entry: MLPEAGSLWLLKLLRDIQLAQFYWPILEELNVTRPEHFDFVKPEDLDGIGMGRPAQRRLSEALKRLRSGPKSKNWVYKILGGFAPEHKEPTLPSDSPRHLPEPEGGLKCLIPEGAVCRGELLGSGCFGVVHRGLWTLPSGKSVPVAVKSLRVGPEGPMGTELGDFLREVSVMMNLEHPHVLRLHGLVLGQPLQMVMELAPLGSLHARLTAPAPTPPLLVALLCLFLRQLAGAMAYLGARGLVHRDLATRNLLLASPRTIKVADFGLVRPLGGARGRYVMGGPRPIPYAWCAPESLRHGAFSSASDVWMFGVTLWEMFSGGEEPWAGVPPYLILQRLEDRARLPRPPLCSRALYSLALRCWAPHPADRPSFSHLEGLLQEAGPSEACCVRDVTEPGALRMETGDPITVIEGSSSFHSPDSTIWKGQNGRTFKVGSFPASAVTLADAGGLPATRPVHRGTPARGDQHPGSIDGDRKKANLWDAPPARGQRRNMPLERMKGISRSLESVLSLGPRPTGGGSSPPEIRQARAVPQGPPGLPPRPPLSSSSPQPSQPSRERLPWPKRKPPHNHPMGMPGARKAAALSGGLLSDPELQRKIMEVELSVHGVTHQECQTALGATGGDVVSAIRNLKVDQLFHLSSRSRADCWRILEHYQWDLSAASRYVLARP
# UniProt P06276, whole entry, looked up: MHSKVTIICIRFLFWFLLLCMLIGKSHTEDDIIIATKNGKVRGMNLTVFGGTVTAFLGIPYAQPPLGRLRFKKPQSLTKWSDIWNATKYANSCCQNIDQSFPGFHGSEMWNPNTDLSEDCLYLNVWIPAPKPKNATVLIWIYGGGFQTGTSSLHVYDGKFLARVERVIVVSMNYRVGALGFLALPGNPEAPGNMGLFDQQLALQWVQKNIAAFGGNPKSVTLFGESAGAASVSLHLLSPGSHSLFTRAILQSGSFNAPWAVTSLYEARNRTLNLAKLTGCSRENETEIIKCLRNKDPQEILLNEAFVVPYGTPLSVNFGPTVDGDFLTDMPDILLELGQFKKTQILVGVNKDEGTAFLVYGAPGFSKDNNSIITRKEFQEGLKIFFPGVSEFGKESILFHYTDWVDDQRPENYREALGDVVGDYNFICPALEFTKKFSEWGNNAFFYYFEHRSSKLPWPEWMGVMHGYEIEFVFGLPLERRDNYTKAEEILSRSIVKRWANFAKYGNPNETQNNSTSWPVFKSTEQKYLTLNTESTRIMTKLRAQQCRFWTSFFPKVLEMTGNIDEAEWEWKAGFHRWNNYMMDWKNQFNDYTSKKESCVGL
# UniProt P11802, whole entry: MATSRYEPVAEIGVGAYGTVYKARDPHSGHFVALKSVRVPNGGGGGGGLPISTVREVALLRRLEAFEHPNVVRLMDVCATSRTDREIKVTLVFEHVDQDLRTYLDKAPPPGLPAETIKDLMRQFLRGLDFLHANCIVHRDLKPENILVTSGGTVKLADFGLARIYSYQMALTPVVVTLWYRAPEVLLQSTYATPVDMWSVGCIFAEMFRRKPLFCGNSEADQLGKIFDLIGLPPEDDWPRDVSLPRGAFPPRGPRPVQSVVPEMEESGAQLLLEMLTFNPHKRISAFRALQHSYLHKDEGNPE
# UniProt P29317, whole entry, looked up: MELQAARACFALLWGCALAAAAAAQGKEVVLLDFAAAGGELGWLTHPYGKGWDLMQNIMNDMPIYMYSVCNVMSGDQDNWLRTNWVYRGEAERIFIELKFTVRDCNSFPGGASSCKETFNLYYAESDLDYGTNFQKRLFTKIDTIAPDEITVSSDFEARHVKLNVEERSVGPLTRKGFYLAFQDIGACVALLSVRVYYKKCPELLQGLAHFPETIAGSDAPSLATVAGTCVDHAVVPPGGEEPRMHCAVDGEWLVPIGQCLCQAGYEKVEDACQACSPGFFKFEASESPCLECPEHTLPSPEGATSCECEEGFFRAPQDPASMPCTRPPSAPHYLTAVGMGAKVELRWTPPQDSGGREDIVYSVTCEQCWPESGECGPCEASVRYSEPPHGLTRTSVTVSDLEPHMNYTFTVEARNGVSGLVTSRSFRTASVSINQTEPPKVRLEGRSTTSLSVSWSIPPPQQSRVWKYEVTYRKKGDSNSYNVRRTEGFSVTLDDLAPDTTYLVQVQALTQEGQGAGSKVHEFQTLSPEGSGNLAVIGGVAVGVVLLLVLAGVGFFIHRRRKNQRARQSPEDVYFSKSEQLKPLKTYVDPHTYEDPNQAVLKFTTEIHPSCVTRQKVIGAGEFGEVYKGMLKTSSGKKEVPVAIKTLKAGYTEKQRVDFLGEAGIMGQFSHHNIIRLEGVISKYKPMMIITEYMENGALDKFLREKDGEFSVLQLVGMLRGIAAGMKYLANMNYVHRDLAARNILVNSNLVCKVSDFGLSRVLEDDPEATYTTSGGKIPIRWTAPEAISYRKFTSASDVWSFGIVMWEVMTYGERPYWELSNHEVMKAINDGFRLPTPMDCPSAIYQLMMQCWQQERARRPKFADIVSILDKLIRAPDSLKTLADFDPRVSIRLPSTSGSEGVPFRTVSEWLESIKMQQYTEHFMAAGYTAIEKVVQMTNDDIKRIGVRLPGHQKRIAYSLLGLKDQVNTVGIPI
# UniProt O43175, whole entry: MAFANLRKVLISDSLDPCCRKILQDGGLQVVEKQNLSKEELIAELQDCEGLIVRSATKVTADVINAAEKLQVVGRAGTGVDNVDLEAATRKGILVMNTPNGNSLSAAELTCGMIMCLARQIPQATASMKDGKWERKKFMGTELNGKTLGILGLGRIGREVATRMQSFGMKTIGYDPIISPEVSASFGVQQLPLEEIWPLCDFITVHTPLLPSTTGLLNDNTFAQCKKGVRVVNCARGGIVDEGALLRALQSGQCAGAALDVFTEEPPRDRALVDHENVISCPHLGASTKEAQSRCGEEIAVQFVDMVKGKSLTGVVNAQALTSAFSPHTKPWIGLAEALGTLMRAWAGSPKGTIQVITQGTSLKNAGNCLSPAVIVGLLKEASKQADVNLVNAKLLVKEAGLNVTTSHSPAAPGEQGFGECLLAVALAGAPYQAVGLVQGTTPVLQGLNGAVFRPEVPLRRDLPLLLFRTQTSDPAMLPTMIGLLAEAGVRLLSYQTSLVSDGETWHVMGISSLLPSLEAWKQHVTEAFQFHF
# UniProt P30281, whole entry partner: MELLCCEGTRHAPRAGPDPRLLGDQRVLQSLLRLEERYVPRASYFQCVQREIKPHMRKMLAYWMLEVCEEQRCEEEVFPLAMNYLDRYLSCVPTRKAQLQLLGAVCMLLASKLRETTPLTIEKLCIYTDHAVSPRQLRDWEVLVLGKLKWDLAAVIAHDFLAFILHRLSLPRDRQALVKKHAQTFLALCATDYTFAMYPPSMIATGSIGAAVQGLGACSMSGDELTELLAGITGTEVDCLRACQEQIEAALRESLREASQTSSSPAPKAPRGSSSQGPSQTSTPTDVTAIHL
# Compare with care: the assays were run in different laboratories. ± gives the spread as reported.
Structure (SMILES),target or system,test,system,conditions,measurement,result
CCN(CC)C(=O)Oc1ccc(C(=O)Nc2cccc3cc[nH]c23)cc1,"Glutamate receptor ionotropic, NMDA 2A, with GluN1 (Grin2a, Rattus norvegicus, UniProt Q00959)","ion current, whole-cell patch clamp",HEK cells,concentration not given,activity,inactive
Fc1ccc(-c2ccc3c(c2)[nH]c2ccncc23)cn1 [isotope labelled],"Microtubule-associated protein tau, aggregated (MAPT, Homo sapiens, UniProt P10636)","binding, Scatchard analysis",Alzheimer's brain homogenate,,Kd,1.9 ± 0.5 nM
O=c1ccc2[n+]([O-])c3ccc(O)cc3oc-2c1,Mycobacterium tuberculosis,,mc2 6206 clofazimine-resistant fbiC mutant,7 days,MIC90,> 256 µM
O=C(Cn1c(-c2ccccn2)nc2ccccc21)Nc1ccc2ccccc2c1,"Inosine-5'-monophosphate dehydrogenase (IMPDH, Tritrichomonas foetus, UniProt P50097)","enzyme activity, inhibitor",,,IC50,> 10000 nM
CC1(C)S[C@@H]2CS[C@@H](CS)N2[C@H]1C(=O)O,"Metallo-beta-lactamase VIM-2 (VIM-2, Escherichia coli, UniProt Q5U7L7, R205L)","nitrocefin hydrolysis, slow-binding inhibitor",Klebsiella pneumoniae,together with: nitrocefin,Ki,80 ± 10 nM
CCCN1CCN(c2ccc3c(c2)C2CC3CCN2C(=O)OCc2ccccc2)CC1 (stereo not drawn),"Alpha-1A adrenergic receptor (ADRA1A, Homo sapiens, UniProt P35348)","binding, radioligand binding",,,Ki,2670 nM
CC#C/C(=N\OC[C@H]1COCCN1)c1ccc2ncnc(Nc3ccc(OCc4cccc(F)c4)c(Cl)c3)c2c1,"Non-receptor tyrosine-protein kinase TNK1 (TNK1, Homo sapiens, UniProt Q13470)",kinase activity,,10 µM,inhibition,5.7%
CCN(CC)c1ccc2c(O)c(C=Nc3ccc(CC(=O)NNc4c5c(nc6ccccc46)CCCC5)cc3)c(=O)oc2c1,"Cholinesterase (BCHE, Homo sapiens, UniProt P06276)","enzyme activity, inhibitor, fluorescence",,,IC50,110 ± 110 nM
Fc1cccc(-n2cnc3c(NCc4nc5cc(Cl)ccc5[nH]4)nc(N4CCNCC4)nc32)c1,"Cyclin-dependent kinase 4, with cyclin D3 (CDK4, Homo sapiens, UniProt P11802)","enzyme activity, inhibitor",,,IC50,391 nM
CC(=O)OCOc1ccc2nc3ccc(=O)cc-3oc2c1,Mycobacterium tuberculosis,,mc2 6206 PA-824-resistant ddn mutant,7 days,MIC90,44 µM
CCN1CCN(Cc2ccc(NC(=O)c3ccc(C)c(/C=C/c4cnc5[nH]ccc5c4OC)c3)cc2C(F)(F)F)CC1,"Ephrin type-A receptor 2 (EPHA2, Homo sapiens, UniProt P29317)","CDC37 binding, inhibitor, LUMIER",,,EC50,38 nM
O=C(N/N=C/c1cc([N+](=O)[O-])ccc1O)c1ccc(O)cc1O,"D-3-phosphoglycerate dehydrogenase (PHGDH, Homo sapiens, UniProt O43175)",surface plasmon resonance,,25 °C,Kd,560 ± 100 nM

# Excerpt of the above:
Structure (SMILES),target or system,test,system,conditions,measurement,result
CC#C/C(=N\OC[C@H]1COCCN1)c1ccc2ncnc(Nc3ccc(OCc4cccc(F)c4)c(Cl)c3)c2c1,"Non-receptor tyrosine-protein kinase TNK1 (TNK1, Homo sapiens, UniProt Q13470)",kinase activity,,10 µM,inhibition,5.7%
